Assay results gathered from unrelated publications.
Protocols differ between the studies behind these lines. Numbers after ± are the reported error.

O=C(CC12CC3CC(CC(C3)C1)C2)NCCOCCOCCOCC(=O)NC1CCN(S(=O)(=O)c2cc(C(=O)Nc3cc(F)c(F)c(F)c3)ccc2F)CC1  EC50 (Hepatitis B virus; viral replication, qPCR, refers to: HBV DNA; HepAD38; 6 days): 1190 nM
CC1(C)OB(c2ccc(CNC(=O)c3cn(Cc4ccc(F)cc4)cc(O)c3=O)cc2)OC1(C)C  EC50 (human cytomegalovirus; viral replication, GFP reporter virus; HFF; 168 h): 2300 ± 50 nM
CCCCCCC(CC=CCCCCCCCC(=O)OCCOCn1cnc2c(=O)[nH]c(N)nc21)OC(=O)CCCCC1SCC2NC(=O)NC21 (centres unmarked)  EC50 (herpes simplex virus 1; viral replication, plaque reduction; HFF, E-377): 5700 nM
C=C1C(=O)O[C@H]2C[C@H](C)C(/C=C/C(C)=O)=CC[C@H]12  EC50 (Reovirus 1; viral replication; Vero): > 20000 nM
O=C(Cc1csc2nc(-c3ccc(Br)cc3)cn12)NN=C1CCCC1  EC50 (Reovirus-1; viral cytopathicity, microscopy; Vero): > 100 µg/mL
CC(=O)Oc1ccc(Cn2ccc(=O)[nH]c2=O)cc1C1OC(c2cccc(Cl)c2)=NN1C(C)=O (centres unmarked)  EC50 (human cytomegalovirus; cytopathic effect; HEL fibroblasts, AD-169): > 100000 nM
Cc1cn(C2CC(N(C)C)C(CO)O2)c(=O)[nH]c1=O (centres unmarked)  EC50 (Human alphaherpesvirus 1; cytopathic effect; HEL): > 370 nM
C1CCCCCC2(CCCCC1)OOCCCOO2  EC50 (hepatitis E virus; replicon RNA replication, NanoLuc reporter; PLC/PRF/5; 72 h): 9200 nM
O=C(CC12CC3CC(CC(C3)C1)C2)NCCOCCOCC(=O)NC1CCN(S(=O)(=O)c2cc(C(=O)Nc3cc(F)c(F)c(F)c3)ccc2F)CC1  EC50 (Hepatitis B virus; viral replication, qPCR, refers to: HBV DNA; HepAD38; 6 days): 1420 nM
COc1ccc(NC(=O)c2cn(Cc3ccc(F)cc3)cc(O)c2=O)cc1  EC50 (human cytomegalovirus; viral replication, GFP reporter virus; HFF; 168 h): 780 ± 230 nM
CC(=Nc1ccccc1)c1c(C)cc(=O)n(O)c1O  EC50 (Hepatitis B virus; viral replication, inhibitor, qPCR; HepDES19; 72 h): 2200 nM
COc1ccccc1-c1n[nH]c2nc(N[C@H]3CC[C@H](NS(=O)(=O)CC(C)C)CC3)ncc12  EC50 (Leishmania donovani; LdBOB CRK12 single knock-out, promastigotes): 0.76 ± 0.004 nM
CC(=O)Oc1ccc(Cn2cc(F)c(=O)[nH]c2=O)cc1C1OC(c2ccccc2)=NN1C(C)=O (centres unmarked)  EC50 (human cytomegalovirus; cytopathic effect; HEL fibroblasts, Davis): > 100000 nM
C=CCc1ccc(OCC(=C)C)c(OC)c1  EC50 (Spodoptera frugiperda; antifeedant activity, no-choice test; larvae, Zea mays): 209 µg/mL
O=C(Nc1cc(F)c(F)c(F)c1)c1ccc(F)c(S(=O)(=O)N2CCC(NC(=O)C3CCC4(CC3)CCN(C(=O)CC35CC6CC(CC(C6)C3)C5)CC4)CC2)c1  EC50 (Hepatitis B virus; viral replication, qPCR, refers to: HBV DNA; HepAD38; 4 days): 2710 nM
CCCCCCCCCC(=O)OCC1OC(n2cc(C)c(=O)[nH]c2=O)CC1N(C)C (centres unmarked)  EC50 (Punta Toro virus; viral replication; Vero): > 230 nM
O=C(Nc1cc(F)c(F)c(F)c1)c1ccc(F)c(S(=O)(=O)N2CCC(O)CC2)c1  EC50 (Hepatitis B virus; viral replication, qPCR, refers to: HBV DNA; HepAD38; 6 days): 260 nM
CC(=O)CCC1C(=O)NC(C(C)C)C(=O)NC(Cc2cccc(O)c2)C(=O)N2CCCC(N2)C(=O)OC(C(C)=CC=CC(=O)N2CCCCO2)CC=CC=CC(O)C(C)C1O (centres unmarked)  EC50 (hepatitis C virus genotype 1a H77; refers to: HCV RNA; Huh-7 replicon; 72 h): 63 ± 4 nM
CCC1c2cc(OC)c(O)cc2C(c2ccc(O)c(OC)c2)C1C (centres unmarked)  EC50 (Spodoptera frugiperda; antifeedant activity, no-choice test; larvae, Zea mays): 2530 µg/mL
CN(C)CCNC(=O)c1cc(-c2ccccc2)nc2ccccc12  EC50 (Enterovirus A71; cytopathic effect; RD, Tainan/4643/98): 4200 nM
O=C(CC1CCN(C(=O)CC23CC4CC(CC(C4)C2)C3)CC1)NC1CCN(S(=O)(=O)c2cc(C(=O)Nc3cc(F)c(F)c(F)c3)ccc2F)CC1  EC50 (Hepatitis B virus; viral replication, qPCR, refers to: HBV DNA; HepAD38; 4 days): 650 nM
Nc1ncnc2c1c(Cl)cn2[C@@H]1O[C@H](CO)[C@@H](O)[C@H]1O  EC50 (Trypanosoma evansi; parasite growth, resazurin; AnTat 3.3; 48 h plus 24 h resazurin): 620 ± 60 nM
CC(=O)Oc1ccc(Cn2nc(C)c(=O)[nH]c2=O)cc1C1OC(c2cccc(Cl)c2)=NN1C(C)=O (centres unmarked)  EC50 (human cytomegalovirus; cytopathic effect; HEL fibroblasts, Davis): > 20000 nM
C=CCc1ccc(OCC=C(C)C)c(OC)c1  EC50 (Spodoptera frugiperda; antifeedant activity, no-choice test; larvae, Zea mays): 340 µg/mL
CC(=O)Oc1ccc(Cn2cc(F)c(=O)[nH]c2=O)cc1C1OC(c2ccc(Cl)cc2)=NN1C(C)=O (centres unmarked)  EC50 (human cytomegalovirus; cytopathic effect; HEL fibroblasts, AD-169): > 20000 nM
Nc1ncnc2c1c(Br)cn2[C@@H]1O[C@H](CO)[C@@H](O)[C@H]1O  EC50 (Trypanosoma evansi; parasite growth, resazurin; AnTat 3.3; 48 h plus 24 h resazurin): 480 ± 60 nM
CC(=O)Oc1ccc(Cn2ccc(=O)[nH]c2=O)cc1C1OC(c2ccc(Cl)cc2)=NN1C(C)=O (centres unmarked)  EC50 (human cytomegalovirus; cytopathic effect; HEL fibroblasts, AD-169): > 20000 nM
O=C(Nc1cc(F)c(F)c(F)c1)c1ccc(F)c(S(=O)(=O)N2CCC(NC(=O)c3ccc(C4CCN(C(=O)CC56CC7CC(CC(C7)C5)C6)CC4)cc3)CC2)c1  EC50 (Hepatitis B virus; viral replication, qPCR, refers to: HBV DNA; HepAD38; 4 days): 5340 nM
CC(=O)Oc1ccc(Cn2ccc(=O)[nH]c2=O)cc1C1OC(c2ccccc2)=NN1C(C)=O (centres unmarked)  EC50 (human cytomegalovirus; cytopathic effect; HEL fibroblasts, AD-169): > 100000 nM
O=C(NCc1cc(F)ccc1F)c1cn(Cc2ccc(F)cc2)cc(O)c1=O  EC50 (human cytomegalovirus; viral replication, GFP reporter virus; HFF; 168 h): 1400 ± 50 nM
O=C(CC12CC3CC(CC(C3)C1)C2)NC1CCN(S(=O)(=O)c2cc(C(=O)Nc3cc(F)c(F)c(F)c3)ccc2F)CC1  EC50 (Hepatitis B virus; viral replication, qPCR, refers to: HBV DNA; HepAD38; 6 days): 400 nM
CC(=O)Oc1ccc(Cn2cc(C)c(=O)[nH]c2=O)cc1C1OC(c2ccccc2)=NN1C(C)=O (centres unmarked)  EC50 (human cytomegalovirus; cytopathic effect; HEL fibroblasts, AD-169): > 100000 nM
CC(=O)CCC1C(=O)NC(C(C)C)C(=O)NC(Cc2cc(O)cc(F)c2)C(=O)N2CCCC(N2)C(=O)OC(C(C)=CC=CC(=O)N2CCCCO2)CC=CC=CC(O)C(C)C1O (centres unmarked)  EC50 (hepatitis C virus genotype 2a JFH-1; refers to: HCV RNA; Huh-7 replicon; 72 h): 21 ± 3 nM
CC(=O)Oc1ccc(Cn2cc(F)c(=O)[nH]c2=O)cc1C1OC(c2cccc(Cl)c2)=NN1C(C)=O (centres unmarked)  EC50 (human cytomegalovirus; cytopathic effect; HEL fibroblasts, AD-169): > 20000 nM
O=C1/C(=N\NC(=S)NN=Cc2cccs2)c2ccccc2N1Cc1ccccc1  EC50 (Punta Toro virus; viral cytopathogenicity; Vero): > 20000 nM

A few entries again:
C=CCc1ccc(OCC(=C)C)c(OC)c1  EC50 (Spodoptera frugiperda; antifeedant activity, no-choice test; larvae, Zea mays): 209 µg/mL
O=C(Nc1cc(F)c(F)c(F)c1)c1ccc(F)c(S(=O)(=O)N2CCC(NC(=O)C3CCC4(CC3)CCN(C(=O)CC35CC6CC(CC(C6)C3)C5)CC4)CC2)c1  EC50 (Hepatitis B virus; viral replication, qPCR, refers to: HBV DNA; HepAD38; 4 days): 2710 nM
CCCCCCCCCC(=O)OCC1OC(n2cc(C)c(=O)[nH]c2=O)CC1N(C)C (centres unmarked)  EC50 (Punta Toro virus; viral replication; Vero): > 230 nM
